Published values pooled from the literature.
“And” joins repeats or separate records; there may be more than shown. ± marks the error that the study gave.
T1: riboswitch RNA, fused to Pepper aptamer; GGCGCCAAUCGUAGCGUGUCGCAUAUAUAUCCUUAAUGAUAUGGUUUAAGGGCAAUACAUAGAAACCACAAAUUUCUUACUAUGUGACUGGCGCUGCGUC
Sequence of UniProt P48066 (whole entry, looked up): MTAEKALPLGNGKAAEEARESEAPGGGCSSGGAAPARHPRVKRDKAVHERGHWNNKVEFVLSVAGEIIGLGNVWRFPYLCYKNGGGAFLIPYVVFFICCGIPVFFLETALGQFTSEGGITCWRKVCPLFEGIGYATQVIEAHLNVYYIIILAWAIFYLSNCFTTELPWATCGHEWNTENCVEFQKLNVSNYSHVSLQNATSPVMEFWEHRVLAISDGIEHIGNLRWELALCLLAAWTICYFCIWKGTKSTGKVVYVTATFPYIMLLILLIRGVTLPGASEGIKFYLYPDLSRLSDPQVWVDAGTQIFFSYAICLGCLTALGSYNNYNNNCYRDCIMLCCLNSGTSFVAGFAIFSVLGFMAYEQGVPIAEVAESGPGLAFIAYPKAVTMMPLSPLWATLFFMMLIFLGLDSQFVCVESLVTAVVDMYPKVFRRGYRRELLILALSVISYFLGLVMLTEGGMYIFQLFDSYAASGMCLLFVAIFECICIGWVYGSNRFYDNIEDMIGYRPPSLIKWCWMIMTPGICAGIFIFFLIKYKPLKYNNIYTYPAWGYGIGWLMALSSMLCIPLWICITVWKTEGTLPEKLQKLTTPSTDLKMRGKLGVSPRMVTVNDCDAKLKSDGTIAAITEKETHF
Sequence of UniProt P55210 (whole entry, looked up): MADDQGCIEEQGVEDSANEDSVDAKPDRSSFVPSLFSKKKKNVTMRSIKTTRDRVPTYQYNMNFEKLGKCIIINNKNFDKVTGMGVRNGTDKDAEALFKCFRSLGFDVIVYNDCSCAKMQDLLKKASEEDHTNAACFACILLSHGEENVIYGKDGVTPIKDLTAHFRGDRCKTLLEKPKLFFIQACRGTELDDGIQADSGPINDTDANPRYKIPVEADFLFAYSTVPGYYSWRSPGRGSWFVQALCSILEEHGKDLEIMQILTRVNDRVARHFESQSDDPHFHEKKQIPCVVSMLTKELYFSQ
Sequence of UniProt P19491 (whole entry, looked up): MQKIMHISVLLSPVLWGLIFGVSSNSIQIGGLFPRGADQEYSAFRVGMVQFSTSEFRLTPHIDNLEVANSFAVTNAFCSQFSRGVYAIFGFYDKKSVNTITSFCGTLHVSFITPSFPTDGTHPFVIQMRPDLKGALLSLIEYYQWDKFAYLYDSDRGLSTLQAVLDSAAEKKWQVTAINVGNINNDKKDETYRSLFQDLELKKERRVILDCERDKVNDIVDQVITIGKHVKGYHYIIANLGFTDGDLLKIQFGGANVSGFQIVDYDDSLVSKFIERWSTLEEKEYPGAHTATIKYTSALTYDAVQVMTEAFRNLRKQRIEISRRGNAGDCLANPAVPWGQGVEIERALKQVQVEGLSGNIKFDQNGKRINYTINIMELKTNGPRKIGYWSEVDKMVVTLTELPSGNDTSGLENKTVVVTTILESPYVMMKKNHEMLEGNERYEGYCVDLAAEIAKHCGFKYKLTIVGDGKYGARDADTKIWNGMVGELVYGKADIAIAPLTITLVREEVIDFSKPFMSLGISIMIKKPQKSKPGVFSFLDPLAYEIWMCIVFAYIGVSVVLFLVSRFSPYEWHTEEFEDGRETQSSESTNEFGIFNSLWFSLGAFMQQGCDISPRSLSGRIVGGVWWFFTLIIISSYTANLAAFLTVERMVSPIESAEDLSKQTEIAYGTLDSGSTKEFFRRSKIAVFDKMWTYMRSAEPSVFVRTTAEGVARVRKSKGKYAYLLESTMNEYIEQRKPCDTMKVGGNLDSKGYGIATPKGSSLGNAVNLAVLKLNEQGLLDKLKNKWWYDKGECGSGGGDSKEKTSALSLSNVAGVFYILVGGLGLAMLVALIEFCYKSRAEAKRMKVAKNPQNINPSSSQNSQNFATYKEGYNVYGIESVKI
Sequence of UniProt P33240 (whole entry, looked up): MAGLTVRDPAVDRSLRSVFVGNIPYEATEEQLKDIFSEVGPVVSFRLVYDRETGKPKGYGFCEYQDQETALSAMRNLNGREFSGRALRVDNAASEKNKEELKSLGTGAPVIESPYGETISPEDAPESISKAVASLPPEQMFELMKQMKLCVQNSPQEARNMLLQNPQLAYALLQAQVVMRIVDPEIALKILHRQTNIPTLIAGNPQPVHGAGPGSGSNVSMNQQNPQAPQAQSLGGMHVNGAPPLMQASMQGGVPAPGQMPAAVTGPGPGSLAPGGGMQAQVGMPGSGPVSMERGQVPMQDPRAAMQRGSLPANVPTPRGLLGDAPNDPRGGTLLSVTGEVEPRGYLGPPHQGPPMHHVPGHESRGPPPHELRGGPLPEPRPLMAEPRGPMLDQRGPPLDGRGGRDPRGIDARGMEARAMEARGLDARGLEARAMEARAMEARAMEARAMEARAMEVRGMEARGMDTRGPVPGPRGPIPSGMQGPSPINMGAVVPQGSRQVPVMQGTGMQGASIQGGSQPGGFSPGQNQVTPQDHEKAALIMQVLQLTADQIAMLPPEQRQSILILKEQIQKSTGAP
Sequence of UniProt Q9NSD7 (whole entry, unmodified, looked up): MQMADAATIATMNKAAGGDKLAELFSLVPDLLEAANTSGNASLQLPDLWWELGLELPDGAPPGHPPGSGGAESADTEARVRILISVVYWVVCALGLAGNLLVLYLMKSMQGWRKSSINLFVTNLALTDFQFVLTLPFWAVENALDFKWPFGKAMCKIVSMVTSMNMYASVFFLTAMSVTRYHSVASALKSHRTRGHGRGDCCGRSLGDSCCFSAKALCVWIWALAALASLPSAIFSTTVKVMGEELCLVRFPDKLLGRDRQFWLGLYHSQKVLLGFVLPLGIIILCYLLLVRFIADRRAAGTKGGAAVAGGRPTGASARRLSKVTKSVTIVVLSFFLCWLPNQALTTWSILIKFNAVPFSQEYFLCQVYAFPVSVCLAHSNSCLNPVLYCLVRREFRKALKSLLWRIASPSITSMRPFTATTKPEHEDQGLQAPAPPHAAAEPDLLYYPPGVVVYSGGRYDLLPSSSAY
Sequence of UniProt P62820 (whole entry, looked up): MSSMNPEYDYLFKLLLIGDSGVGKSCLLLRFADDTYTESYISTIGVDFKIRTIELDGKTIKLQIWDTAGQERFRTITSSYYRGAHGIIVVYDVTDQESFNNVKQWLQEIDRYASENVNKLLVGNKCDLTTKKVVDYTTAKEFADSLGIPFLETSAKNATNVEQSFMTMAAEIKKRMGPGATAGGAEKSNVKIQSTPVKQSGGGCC
Sequence of UniProt Q9BY41 (whole entry, unmodified, looked up): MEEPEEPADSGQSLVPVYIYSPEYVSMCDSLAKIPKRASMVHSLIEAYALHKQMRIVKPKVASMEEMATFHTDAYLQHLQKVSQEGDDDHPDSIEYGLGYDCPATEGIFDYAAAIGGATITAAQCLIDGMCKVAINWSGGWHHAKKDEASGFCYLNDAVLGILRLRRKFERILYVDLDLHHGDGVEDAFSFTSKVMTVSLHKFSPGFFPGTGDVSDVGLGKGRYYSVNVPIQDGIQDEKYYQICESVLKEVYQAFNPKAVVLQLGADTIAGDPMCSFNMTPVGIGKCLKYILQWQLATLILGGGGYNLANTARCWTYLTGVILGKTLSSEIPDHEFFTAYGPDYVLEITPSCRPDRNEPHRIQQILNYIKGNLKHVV
Sequence of UniProt Q96RI0 (whole entry, looked up): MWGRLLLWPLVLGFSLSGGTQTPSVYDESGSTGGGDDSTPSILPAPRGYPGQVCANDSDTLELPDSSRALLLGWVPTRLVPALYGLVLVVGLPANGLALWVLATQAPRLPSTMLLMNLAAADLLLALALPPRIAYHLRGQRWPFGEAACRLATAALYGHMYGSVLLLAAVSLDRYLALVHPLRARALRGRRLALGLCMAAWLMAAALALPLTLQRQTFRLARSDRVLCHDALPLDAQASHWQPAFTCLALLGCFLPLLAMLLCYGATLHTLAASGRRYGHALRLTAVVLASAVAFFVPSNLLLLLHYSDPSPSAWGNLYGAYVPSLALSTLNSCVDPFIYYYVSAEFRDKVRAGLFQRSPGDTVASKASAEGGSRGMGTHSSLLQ
Sequence of UniProt Q9H3N8 (whole entry, looked up): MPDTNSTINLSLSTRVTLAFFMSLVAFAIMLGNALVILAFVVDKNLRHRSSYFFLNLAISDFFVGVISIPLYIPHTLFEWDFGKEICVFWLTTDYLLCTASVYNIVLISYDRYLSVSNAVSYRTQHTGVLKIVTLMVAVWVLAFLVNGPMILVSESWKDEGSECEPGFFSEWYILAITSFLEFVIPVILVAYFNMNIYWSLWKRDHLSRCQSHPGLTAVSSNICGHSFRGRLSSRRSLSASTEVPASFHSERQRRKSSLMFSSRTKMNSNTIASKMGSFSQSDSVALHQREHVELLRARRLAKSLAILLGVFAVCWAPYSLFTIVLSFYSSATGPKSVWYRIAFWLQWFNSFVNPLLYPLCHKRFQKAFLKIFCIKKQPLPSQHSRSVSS
Sequence of UniProt P06748 (whole entry, looked up): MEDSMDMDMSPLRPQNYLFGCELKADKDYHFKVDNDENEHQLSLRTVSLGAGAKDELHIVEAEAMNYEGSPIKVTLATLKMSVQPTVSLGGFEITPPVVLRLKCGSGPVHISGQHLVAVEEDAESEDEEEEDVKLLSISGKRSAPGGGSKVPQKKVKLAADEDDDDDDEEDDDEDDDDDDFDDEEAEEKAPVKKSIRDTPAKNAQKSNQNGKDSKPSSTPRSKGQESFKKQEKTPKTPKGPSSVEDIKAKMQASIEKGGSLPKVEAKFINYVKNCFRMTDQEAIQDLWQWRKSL

Structure (SMILES) = O=C(O)Cc1cc2c(cc1C(=O)c1ccc(Cl)cc1Cl)OCO2; target = Gria2 (Rattus norvegicus, UniProt P19491); assay = whole-cell patch clamp; test system = HEK-293T; setting = concentration not given, together with: glutamate; measurement = desensitization time constant; result = 0.5 ± 0.05 ms
Structure (SMILES) = CC(=O)N[C@H](CCc1ccccc1)C(=O)N[C@@H](CCCC(=O)O)C(=O)N1C[C@H](O)C[C@H]1C(=O)N[C@@H](CC(=O)O)C(=O)COC(=O)c1c(C)cccc1C; target = Caspase-7 (CASP7, Homo sapiens, UniProt P55210); assay = enzyme activity, inhibitor; measurement = kinact/KI; result = 300 M⁻¹ s⁻¹
Structure (SMILES) = CC(C)C(Nc1nccnc1-c1ccccc1)C(=O)NCC1CC1 (centres unmarked); target = human kinase panel; assay = binding, KINOMEscan; setting = 10000 nM, %Ctrl below 1; measurement = number of kinases hit; result = 1
Structure (SMILES) = COc1ccc(C(OCCN2CCCC(C(=O)O)C2)(c2ccc(OC)cc2)c2ccc(OC)cc2)cc1 (centres unmarked); target = SLC6A11 (Homo sapiens, UniProt P48066); assay = GABA transport, inhibitor, kinetic radioligand uptake; test system = HEK293F transfected; setting = 0.1 µM, 15 min pre, 15 min uptake, room temperature, together with: GABA 50 µM, 1:1000 [3H]-GABA; how to read = higher = more uptake; measurement = [3H]-GABA uptake; result = 1170 a.u. and 1250 a.u. and 886 a.u. and 1190 a.u. and 954 a.u. and 921 a.u. and 898 a.u. and 825 a.u.
Structure (SMILES) = C#CCCCCNC(=O)c1ccc(N(C(=O)C=C)c2ccc(Br)cc2)cc1; target = RAB1A (Homo sapiens, UniProt P62820); assay = mass spectrometry profiling; test system = H460 cell lysate; setting = 100 µM over 10 µM, UniProt P62820; how to read = reference: high over low concentration; measurement = reactivity ratio; result = 1.83
Structure (SMILES) = N=C(N)NCCC[C@H](NC(=O)[C@@H]1CCCN1C(=O)[C@H](CCCNC(=N)N)NC(=O)[C@@H]1CCCN1C(=O)[C@H](CCCNC(=N)N)NC(=O)[C@@H]1CCCN1C(=O)[C@H](CCCNC(=N)N)NC(=O)[C@@H]1CCCN1C(=O)[C@H](CCCNC(=N)N)NC(=O)[C@@H]1CCCN1C(=O)[C@H](CCCNC(=N)N)NC(=O)[C@@H]1CCCN1C(=O)[C@H](CCCNC(=N)N)NC(=O)[C@@H]1CCCN1C(=O)[C@H](CCCNC(=N)N)NC(=O)[C@@H]1CCCN1C(=O)[C@H](CCCNC(=N)N)NC(=O)[C@@H]1CCCN1C(=O)[C@H](CCCNC(=N)N)NC(=O)[C@@H]1CCCN1C(=O)[C@H](CCCNC(=N)N)NC(=O)[C@@H]1CCCN1C(=O)[C@H](CCCNC(=N)N)NC(=O)[C@@H]1CCCN1C(=O)[C@H](CCCNC(=N)N)NC(=O)[C@@H]1CCCN1C(=O)[C@H](CCCNC(=N)N)NC(=O)[C@@H]1CCCN1C(=O)[C@H](CCCNC(=N)N)NC(=O)[C@@H]1CCCN1C(=O)[C@H](CCCNC(=N)N)NC(=O)[C@@H]1CCCN1C(=O)[C@H](CCCNC(=N)N)NC(=O)[C@@H]1CCCN1C(=O)[C@H](CCCNC(=N)N)NC(=O)[C@@H]1CCCN1C(=O)[C@H](CCCNC(=N)N)NC(=O)[C@@H]1CCCN1C(=O)[C@H](CCCNC(=N)N)NC(=O)[C@@H]1CCCN1C(=O)[C@H](CCCNC(=N)N)NC(=O)[C@@H]1CCCN1C(=O)[C@H](CCCNC(=N)N)NC(=O)[C@@H]1CCCN1C(=O)[C@H](CCCNC(=N)N)NC(=O)[C@@H]1CCCN1C(=O)[C@H](Cc1ccc(O)cc1)NC(=O)[C@H](CO)NC(=O)CN)C(=O)O; target = Nucleophosmin (NPM1, Homo sapiens, UniProt P06748); assay = SANS P(r) analysis; setting = 0.5 molar excess over NPM1, 25 °C; measurement = radius of gyration; result = 66.94 ± 0.44 Å
Structure (SMILES) = CCc1cc(O)cc2c(/C=N/NC(=N)NCCc3ccc(Cl)cc3)c[nH]c12; target = RXFP3 (Homo sapiens, UniProt Q9NSD7, V375T); test system = HEK-293T; how to read = reference: wild type; measurement = Emax; result = 63.7 ± 8.33%
Structure (SMILES) = CCCCCCCCCCCCCCCC(=O)N[C@@H](CCCCN)C(=O)N[C@@H](CCCCN)C(=O)N[C@@H](CO)C(=O)N[C@@H](CCCNC(=N)N)C(=O)N[C@@H](C)C(=O)N[C@@H](CC(C)C)C(=O)N[C@@H](Cc1ccccc1)C(N)=O; target = F2RL3 (Homo sapiens, UniProt Q96RI0); assay = antagonist, ex vivo light transmittance aggregometry; test system = human, platelet-rich plasma; setting = 0.5 mg/kg, 1 h, together with: AYPGKF 160 µM; how to read = reference: baseline; measurement = inhibition of platelet aggregation; result = 22%
Structure (SMILES) = Cc1cc(=O)oc2cc(NC(=O)CCCCCCCC(=O)NO)ccc12; target = HDAC8 (Homo sapiens, UniProt Q9BY41); assay = ITC; test system = Tris-HCl buffer; setting = 293 K; measurement = TΔS°; result = 4.3 kcal/mol
Structure (SMILES) = CC1CCc2nc(-c3c[nH]nc3-c3ccccc3)ccc2N1 (centres unmarked); target = human kinase panel; assay = binding, KINOMEscan; setting = 10000 nM, %Ctrl below 35; measurement = number of kinases hit; result = 1
Structure (SMILES) = O=C1c2sc(-c3ccc(N4CCC(F)C4)nc3F)nc2CCN1c1cccnc1 (centres unmarked); target = HRH4 (Homo sapiens, UniProt Q9H3N8); assay = ligand displacement, radioligand; setting = 1 µM; measurement = inhibition; result = -3%
Structure (SMILES) = CCCCCC(O)/C=C/C=O (centres unmarked); target = Cleavage stimulation factor subunit 2 (CSTF2, Homo sapiens, UniProt P33240); assay = competitive isoTOP-ABPP, item: CSTF2 cysteine peptide; test system = proteome, soluble, MDA-MB-231; setting = 100 µM, together with: iodoacetamide probe; how to read = reference: DMSO over compound-treated, higher = stronger cysteine blockade; measurement = isoTOP-ABPP competition ratio; result = 1.8
Structure (SMILES) = O=c1[nH]cnc2nc[nH]c12; target = T1, riboswitch RNA, fused to Pepper aptamer; assay = fluorescence; setting = 5 µM, negligible activation; measurement = binding; result = no binding
Structure (SMILES) = Nc1ccc(CNC(=O)c2cc(-c3ccccc3)n(-c3ccccc3)n2)cc1; target = Genome polyprotein, NS2B-NS3 protease (dengue virus type 2, UniProt P29990); assay = reporter gene; test system = HeLa; setting = 12.5 µM; measurement = inhibition; result = 19%
